# Assay results from different studies.
# Numbered parts are unrelated; each lists some results of a single study. Positions count from the first letter of the parent shown.
# Sequence of UniProt P31152 (whole entry, looked up): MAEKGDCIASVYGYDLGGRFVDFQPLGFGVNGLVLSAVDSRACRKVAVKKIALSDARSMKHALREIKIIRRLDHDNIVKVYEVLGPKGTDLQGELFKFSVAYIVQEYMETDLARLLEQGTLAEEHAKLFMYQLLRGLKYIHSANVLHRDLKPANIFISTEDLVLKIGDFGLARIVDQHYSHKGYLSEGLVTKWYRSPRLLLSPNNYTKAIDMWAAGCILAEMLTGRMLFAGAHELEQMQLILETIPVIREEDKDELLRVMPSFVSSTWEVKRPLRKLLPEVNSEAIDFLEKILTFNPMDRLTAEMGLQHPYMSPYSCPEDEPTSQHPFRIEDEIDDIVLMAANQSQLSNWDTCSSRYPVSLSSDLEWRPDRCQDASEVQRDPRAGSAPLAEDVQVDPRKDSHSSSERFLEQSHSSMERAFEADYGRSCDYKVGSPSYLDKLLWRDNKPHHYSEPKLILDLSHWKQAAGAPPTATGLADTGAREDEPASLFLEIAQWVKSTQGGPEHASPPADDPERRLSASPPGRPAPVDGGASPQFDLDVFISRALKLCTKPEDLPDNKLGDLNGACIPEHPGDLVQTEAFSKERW
# Sequence of UniProt Q9NR20 (whole entry, looked up): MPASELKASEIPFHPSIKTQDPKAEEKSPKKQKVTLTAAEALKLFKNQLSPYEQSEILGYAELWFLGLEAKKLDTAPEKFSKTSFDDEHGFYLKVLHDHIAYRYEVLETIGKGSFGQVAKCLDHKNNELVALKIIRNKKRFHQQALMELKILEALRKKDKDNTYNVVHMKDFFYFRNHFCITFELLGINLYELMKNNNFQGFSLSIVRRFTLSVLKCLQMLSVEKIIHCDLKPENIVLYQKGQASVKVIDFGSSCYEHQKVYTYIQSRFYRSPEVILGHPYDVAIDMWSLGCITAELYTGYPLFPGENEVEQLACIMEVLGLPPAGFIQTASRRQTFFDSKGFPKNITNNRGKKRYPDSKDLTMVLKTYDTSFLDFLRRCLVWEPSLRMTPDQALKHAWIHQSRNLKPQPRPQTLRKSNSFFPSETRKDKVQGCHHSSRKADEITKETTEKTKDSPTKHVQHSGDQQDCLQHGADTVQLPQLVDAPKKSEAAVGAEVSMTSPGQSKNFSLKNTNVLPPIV

# Sample 1
# Target: CCNE1, cyclin fold, Cln2 fusion (human)
# Method: yeast growth competition, sequencing
# Matrix: yeast
# Notes: strong parent motif
# Baseline: not given
# Direction: higher = stronger binding
# Starting sequence: viral docking peptide; TSVRRALFTGGSD; partner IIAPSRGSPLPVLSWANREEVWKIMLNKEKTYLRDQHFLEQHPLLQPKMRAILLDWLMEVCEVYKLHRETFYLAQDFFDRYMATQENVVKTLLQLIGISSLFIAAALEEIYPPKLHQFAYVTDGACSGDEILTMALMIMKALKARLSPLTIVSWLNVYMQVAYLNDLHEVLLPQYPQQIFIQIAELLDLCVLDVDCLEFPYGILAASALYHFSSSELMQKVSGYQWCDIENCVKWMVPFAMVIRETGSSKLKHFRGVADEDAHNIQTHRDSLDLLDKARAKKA
Change,normalised enrichment score
TSVRRALFTGVSD [G11V],5.64
TSVRRALPTGGSD [F8P],0.0119
THVRRALFTGGSD [S2H],5.73
TSVRRALRTGGSD [F8R],0.0872
TSVRRALFTGPSD [G11P],6.14
TSVRRALFTGNSD [G11N],5.81
TSVRRALETGGSD [F8E],-0.261
TSVRRALFTNGSD [G10N],6.04

# Sample 2
# Target: UDP-N-acetylglucosamine--peptide N-acetylglucosaminyltransferase 110 kDa subunit (OGT, Homo sapiens, UniProt O15294)
# Sequence of UniProt O15294 (whole entry, looked up): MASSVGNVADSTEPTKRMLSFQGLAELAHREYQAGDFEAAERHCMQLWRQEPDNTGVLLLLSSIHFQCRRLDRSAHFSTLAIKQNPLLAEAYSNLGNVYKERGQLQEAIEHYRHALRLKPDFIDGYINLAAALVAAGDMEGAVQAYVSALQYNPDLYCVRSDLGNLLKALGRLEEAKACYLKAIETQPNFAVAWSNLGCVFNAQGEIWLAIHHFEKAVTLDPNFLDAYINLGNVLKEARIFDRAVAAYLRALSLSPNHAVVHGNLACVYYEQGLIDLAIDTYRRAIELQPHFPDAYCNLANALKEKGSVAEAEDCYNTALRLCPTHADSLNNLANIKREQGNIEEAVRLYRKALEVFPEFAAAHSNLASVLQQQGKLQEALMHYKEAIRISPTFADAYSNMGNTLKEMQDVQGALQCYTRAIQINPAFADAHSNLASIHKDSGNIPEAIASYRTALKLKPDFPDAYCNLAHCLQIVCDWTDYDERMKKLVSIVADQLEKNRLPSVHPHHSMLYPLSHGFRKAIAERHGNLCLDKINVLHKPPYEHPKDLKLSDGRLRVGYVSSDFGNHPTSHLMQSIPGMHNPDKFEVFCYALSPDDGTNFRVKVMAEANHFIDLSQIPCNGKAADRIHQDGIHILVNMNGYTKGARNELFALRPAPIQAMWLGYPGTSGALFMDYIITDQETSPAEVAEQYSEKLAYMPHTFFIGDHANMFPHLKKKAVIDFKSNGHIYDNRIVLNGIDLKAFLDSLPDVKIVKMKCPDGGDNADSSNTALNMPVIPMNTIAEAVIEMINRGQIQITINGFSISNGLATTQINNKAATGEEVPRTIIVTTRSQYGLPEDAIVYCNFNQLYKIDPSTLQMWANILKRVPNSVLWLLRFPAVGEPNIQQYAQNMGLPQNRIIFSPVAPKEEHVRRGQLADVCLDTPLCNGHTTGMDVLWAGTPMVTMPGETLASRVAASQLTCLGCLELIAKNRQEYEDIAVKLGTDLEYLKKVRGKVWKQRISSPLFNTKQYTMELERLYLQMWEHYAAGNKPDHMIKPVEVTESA
# Observed: phage display binding
# Method: phage display panning NGS
# Molecule type: peptide
# Notes: panning round 3
# Baseline: OGT-panned over input library
Molecule,fold enrichment
TYKNDRYLPFYPIII,3.86
YWDAGAFSPKYMIQI,4.09
RYYEPVYQIVATNSN,1.52
VVESMFMPEYQIVPV,3.07
VVQQEYRPRYQISFK,2.01
SYFPVYQIQSFYPVT,4.03
MWFPPVYSIQYDLI,3.38
IYLPIYQIQAQWPFK,3.62

# Further values, each from its own experiment
Structure (SMILES),target,test,setting,scale,measurement,value
N#CC1(c2ccccn2)CCN(Cc2cc(C(=O)O)c(=O)n3ccccc23)CC1,"MAPK4 (Homo sapiens, UniProt P31152)","cell-free assay, competition with immobilised ligand",1 µM,,remaining binding,100%
COC[C@H]1OC(=O)c2coc3c2[C@@]1(C)C1=C(C3=O)[C@@H]2CCC(=O)[C@@]2(C)C[C@H]1OC(C)=O,"DYRK4 (Homo sapiens, UniProt Q9NR20)","enzyme activity, inhibitor",0.5 µM,baseline: control,remaining activity,102%

# Repeated from above (sample 2):
Molecule,fold enrichment
RYYEPVYQIVATNSN,1.52
